# Published values from different studies.
# Each line is one published result; not all experiments were run side by side. Numbers after ± are the reported error.
Compound,system,setting,tissue uptake
N=C(N)NCCC[C@@H]1NC(=O)[C@H](CCCCNC(=O)CCOCCOCCOCCOCCNC(=O)CC[C@H](NC(=O)[C@H](CCCCNC(=O)c2ccc(NN)nc2)NC(=O)c2ccc(NN)nc2)C(=O)NCCOCCOCCOCCOCCC(=O)NCCCC[C@@H]2NC(=O)[C@@H](Cc3ccccc3)NC(=O)[C@H](CC(=O)O)NC(=O)CNC(=O)[C@H](CCCNC(=N)N)NC2=O)NC(=O)[C@@H](Cc2ccccc2)NC(=O)[C@H](CC(=O)O)NC(=O)CNC1=O [technetium-99m labelled],"female athymic nude mice, spleen","intravenous, 0.1 MBq, 1 h, U-87 MG glioma xenograft",1.78 ± 0.26 %ID/g
CSCC[C@H](NC(=O)[C@H](CC(C)C)NC(=O)[C@H](Cc1c[nH]cn1)NC(=O)CNC(=O)[C@@H](NC(=O)[C@H](C)NC(=O)[C@H](Cc1c[nH]c2ccccc12)NC(=O)[C@H](CCC(N)=O)NC(=O)CCCCCCCNC(=O)CCC(=O)Nc1ccc(CNC23CNCCNCC(N)(CNCCNC2)CNCCNC3)cc1)C(C)C)C(N)=O [copper-64 labelled],"female SCID mice, PC-3 xenograft, muscle","intravenous, 0.6 MBq, 4 h",0.272 ± 0.077 %ID/g
N=C(N)NCCC[C@@H]1NC(=O)[C@H](CCCCNC(=O)CC[C@H](NC(=O)CCOCCOCCOCCOCCNC(=O)CN2CCN(CC(=O)O)CCN(CC(=O)O)CCN(CC(=O)O)CC2)C(=O)NCCCC[C@@H]2NC(=O)[C@@H](Cc3ccccc3)NC(=O)[C@H](CC(=O)O)NC(=O)CNC(=O)[C@H](CCCNC(=N)N)NC2=O)NC(=O)[C@@H](Cc2ccccc2)NC(=O)[C@H](CC(=O)O)NC(=O)CNC1=O [indium-111 labelled],"female athymic nude mice, muscle","intravenous, 3 µCi, 24 h, U-87 MG glioma xenograft",0.39 ± 0.11 %ID/g
CC(C)C[C@H](NC(=O)[C@H](Cc1ccc(O)cc1)NC(=O)[C@@H](CCCNC(=N)N)NC(=O)[C@@H](CO)NC(=O)[C@H](Cc1ccccc1)NC(=O)[C@H](CC1CCCCC1)NC(=O)[C@H](CC(=O)O)NC(=O)CCC(C(=O)O)N1CCCN2CCN(CCCN(CC(=O)O)CC2)CC1)C(=O)N[C@@H](Cc1c[nH]c2ccccc12)C(=O)N[C@@H](CO)C(=O)O (stereo partly shown) [copper-64 labelled],"female NMRI nude mice, liver",22 h p.i.,1.6 ± 0.1 %ID/g
N=C(N)NCCC[C@@H]1NC(=O)[C@H](CCCCNC(=O)CC[C@H](NC(=O)[C@H](CCCCNC(=O)c2ccc(NN)nc2)NC(=O)c2ccc(NN)nc2)C(=O)NCCCC[C@@H]2NC(=O)[C@@H](Cc3ccccc3)NC(=O)[C@H](CC(=O)O)NC(=O)CNC(=O)[C@H](CCCNC(=N)N)NC2=O)NC(=O)[C@@H](Cc2ccccc2)NC(=O)[C@H](CC(=O)O)NC(=O)CNC1=O [technetium-99m labelled],"female athymic nude mice, heart","intravenous, 0.1 MBq, 1 h, U-87 MG glioma xenograft",1.02 ± 0.06 %ID/g
CSCC[C@H](NC(=O)[C@H](CC(C)C)NC(=O)[C@H](Cc1c[nH]cn1)NC(=O)CNC(=O)[C@@H](NC(=O)[C@H](C)NC(=O)[C@H](Cc1c[nH]c2ccccc12)NC(=O)[C@H](CCC(N)=O)NC(=O)CCCCNC(=O)CSCCSCCP(CO)CO)C(C)C)C(N)=O [technetium-99m labelled],"CF-1 mice, female, brain","intravenous, 1 h",0 %ID
N=C(N)NCCC[C@@H]1NC(=O)[C@H](CCCCNC(=O)CCOCCOCCOCCOCCNC(=O)CN2CCN(CC(=O)O)CCN(CC(=O)O)CCN(CC(=O)O)CC2)NC(=O)[C@@H](Cc2ccccc2)NC(=O)[C@H](CC(=O)O)NC(=O)CNC1=O [indium-111 labelled],"female athymic nude mice, lungs","intravenous, 3 µCi, 72 h, U-87 MG glioma xenograft",0.16 ± 0.03 %ID/g
CSCC[C@H](NC(=O)[C@H](CC(C)C)NC(=O)[C@H](Cc1c[nH]cn1)NC(=O)CNC(=O)[C@@H](NC(=O)[C@H](C)NC(=O)[C@H](Cc1c[nH]c2ccccc12)NC(=O)[C@H](CCC(N)=O)NC(=O)CNC(=O)[C@H](CO)NC(=O)CNC(=O)CCCCCCCNC(=O)CCC(=O)Nc1ccc(CNC23CNCCNCC(N)(CNCCNC2)CNCCNC3)cc1)C(C)C)C(N)=O [copper-64 labelled],"female SCID mice, PC-3 xenograft, pancreas","intravenous, 1 h, with: 100 µg Tyr4-bombesin blocking",1.9 ± 0.1 %ID/g
N=C(N)NCCC[C@@H]1NC(=O)[C@H](CCCCNC(=O)CCOCCOCCOCCOCCNC(=O)CC[C@H](NC(=O)CCOCCOCCOCCOCCNC(=O)CC[C@H](NC(=O)CN2CCN(CC(=O)O)CCN(CC(=O)O)CCN(CC(=O)O)CC2)C(=O)NCCOCCOCCOCCOCCC(=O)N[C@@H](CCC(=O)NCCOCCOCCOCCOCCC(=O)NCCCC[C@@H]2NC(=O)[C@@H](Cc3ccccc3)NC(=O)[C@H](CC(=O)O)NC(=O)CNC(=O)[C@H](CCCNC(=N)N)NC2=O)C(=O)NCCOCCOCCOCCOCCC(=O)NCCCC[C@@H]2NC(=O)[C@@H](Cc3ccccc3)NC(=O)[C@H](CC(=O)O)NC(=O)CNC(=O)[C@H](CCCNC(=N)N)NC2=O)C(=O)NCCOCCOCCOCCOCCC(=O)NCCCC[C@@H]2NC(=O)[C@@H](Cc3ccccc3)NC(=O)[C@H](CC(=O)O)NC(=O)CNC(=O)[C@H](CCCNC(=N)N)NC2=O)NC(=O)[C@@H](Cc2ccccc2)NC(=O)[C@H](CC(=O)O)NC(=O)CNC1=O [indium-111 labelled],"female athymic nude mice, blood","intravenous, 3 µCi, 0.5 h, U-87 MG glioma xenograft",0.92 ± 0.06 %ID/g
N=C(N)NCCC[C@@H]1NC(=O)[C@H](CCCCNC(=O)CCOCCOCCOCCOCCNC(=O)CC[C@H](NC(=O)CCOCCOCCOCCOCCNC(=O)[C@H](CCCCNC(=O)c2ccc(NN)nc2)NC(=O)c2ccc(NN)nc2)C(=O)NCCOCCOCCOCCOCCC(=O)NCCCC[C@@H]2NC(=O)[C@@H](Cc3ccccc3)NC(=O)[C@H](CC(=O)O)NC(=O)CNC(=O)[C@H](CCCNC(=N)N)NC2=O)NC(=O)[C@@H](Cc2ccccc2)NC(=O)[C@H](CC(=O)O)NC(=O)CNC1=O [technetium-99m labelled],"female athymic nude mice, spleen","intravenous, 0.1 MBq, 1 h, U-87 MG glioma xenograft",1.92 ± 0.38 %ID/g

# Some of these lines once more:
Compound,system,setting,tissue uptake
N=C(N)NCCC[C@@H]1NC(=O)[C@H](CCCCNC(=O)CC[C@H](NC(=O)CCOCCOCCOCCOCCNC(=O)CN2CCN(CC(=O)O)CCN(CC(=O)O)CCN(CC(=O)O)CC2)C(=O)NCCCC[C@@H]2NC(=O)[C@@H](Cc3ccccc3)NC(=O)[C@H](CC(=O)O)NC(=O)CNC(=O)[C@H](CCCNC(=N)N)NC2=O)NC(=O)[C@@H](Cc2ccccc2)NC(=O)[C@H](CC(=O)O)NC(=O)CNC1=O [indium-111 labelled],"female athymic nude mice, muscle","intravenous, 3 µCi, 24 h, U-87 MG glioma xenograft",0.39 ± 0.11 %ID/g
